Experimental data pooled from the literature.
Compare with care: the assays were run in different laboratories. “And” joins repeats or separate records; there may be more than shown. ± marks the error that the study gave.
Sigmar1: Sigma non-opioid intracellular receptor 1 (Sigmar1, Rattus norvegicus, UniProt Q9R0C9)
NPY1R: Neuropeptide Y receptor type 1 (NPY1R, Homo sapiens, UniProt P25929)
ampC: Beta-lactamase (ampC, Escherichia coli K-12, UniProt P00811)
Oprk1: Kappa-type opioid receptor (Oprk1, Rattus norvegicus, UniProt P34975)
MC1R: Melanocyte-stimulating hormone receptor (MC1R, Homo sapiens, UniProt Q01726)
OPRK1: Kappa-type opioid receptor (OPRK1, Homo sapiens, UniProt P41145)

Compound	target	assay	test system	setting	Ki
CCCC(=O)c1ccc2c(c1)sc(=O)n2CCCN1CCCCCC1	Sigmar1	binding, radioligand binding	rat liver membranes	added: [3H](+)-pentazocine 5 nM	2.6 ± 0.4 nM
NC(=S)N/N=C/c1ccc(OCc2ccccc2)cc1	MAOB (Homo sapiens, UniProt P27338)	enzyme activity, inhibitor			72 nM
CC[C@H](C)[C@H](NC(=O)[C@@H](Cc1ccn2nccc2c1)NC(=O)[C@@H]1CCCN1C(=O)[C@H](CCCNC(=N)N)NC(=O)[C@@H](N)CCCNC(=N)N)C(=O)N[C@@H](CC(C)C)C(=O)O	NTSR2 (Homo sapiens, UniProt O95665)	ligand displacement, radioligand		cell membranes	83 nM
CC(=O)N[C@@H](CCCNC(=N)N)C(=O)N[C@@H](Cc1ccc(O)cc1)C(=O)N[C@@H](CCCNC(=N)NC(=O)NCCCCN)C(=O)N[C@@H](CC(C)C)C(=O)N[C@@H](CCCNC(=N)N)C(=O)N[C@@H](Cc1ccc(O)cc1)C(=O)O	NPY1R	ligand displacement, radioligand			> 5000 nM
O=C(O)CN(c1ccccc1)S(=O)(=O)c1ccccc1	ampC				200000 nM
COC(=O)C1C(OC(c2ccc(Cl)cc2)c2ccc(Cl)cc2)CC2CCC1N2C (single isomer, unassigned)	Hrh1 (Rattus norvegicus, UniProt P31390)	ligand displacement, radioligand			27100 nM
CCCCc1ccc2c(c1)sc(=O)n2CCCN1CCCCCC1	Sigmar1	binding, radioligand binding	rat liver membranes	added: [3H](+)-pentazocine 5 nM	2.2 ± 0.4 nM
CC(C)[C@H](NC(=O)c1ccc(CNc2nc3c(c(=O)[nH]2)CCC3)cc1)C(=O)NC1CNC1	Collagenase 3 (MMP13, Homo sapiens, UniProt P45452)	enzyme activity, inhibitor		TFA salt stored 3 months in DMSO, added: fTHP-15(FAM) substrate	63.7 ± 1.5 nM
N=C(N)NCCC[C@@H]1NC(=O)[C@H](CCCNC(=N)N)NC(=O)[C@H](NC(=O)[C@H](Cc2ccccc2)NC(=O)CNC(=O)CNC(=O)[C@H](Cc2ccc(O)cc2)NCc2ccccc2)CC(=O)NCC[C@@H](C(=O)N[C@@H](CCCNC(=N)N)C(=O)N2CCC[C@H]2C(=O)N[C@@H](CCCCN)C(N)=O)NC1=O	Oprk1	cell-free assay			403 nM
N=C(N)NC(=O)c1ccc(C(=O)NCCCC[C@H](NC(=O)[C@H](Cc2c[nH]c3ccccc23)NC(=O)[C@H](CCCCN)NC(=O)CNC(=O)CCC(=O)NN=Cc2cc(C=NNC(=O)CCC(=O)NCC(=O)N[C@@H](CCCCN)C(=O)N[C@@H](Cc3c[nH]c4ccccc34)C(=O)N[C@@H](CCCCNC(=O)c3ccc(C(=O)NC(=N)N)[nH]3)C(N)=O)cc(C=NNC(=O)CCC(=O)NCC(=O)N[C@@H](CCCCN)C(=O)N[C@@H](Cc3c[nH]c4ccccc34)C(=O)N[C@@H](CCCCNC(=O)c3ccc(C(=O)NC(=N)N)[nH]3)C(N)=O)c2)C(N)=O)[nH]1	Tryptase beta-2 (TPSB2, Homo sapiens, UniProt P20231)	non-competitive inhibitor			22.5 nM and 22 nM
CC[C@H](C)[C@H](NC(=O)[C@@H]1CSCC(=O)NCCC[C@H](NC(=O)[C@H](Cc2ccc(O)cc2)NC(=O)CNC(C)=O)C(=O)N[C@@H](CO)C(=O)N[C@@H](CCCNC(=N)N)C(=O)N[C@@H](CO)C(=O)N[C@@H](Cc2ccc(O)cc2)C(=O)N2CCC[C@H]2C(=O)N2CCC[C@H]2C(=O)N[C@@H](C(C)C)C(=O)N1)C(=O)N1CCC[C@H]1C(=O)N[C@@H](CC(=O)O)C(N)=O	Mannan-binding lectin serine protease 2 (Homo sapiens, UniProt O00187)	enzyme activity, inhibitor			60000 nM
CC(C)C[C@H](NC(=O)[C@H](CCCNC(=N)N)NC(=O)[C@H](Cc1c[nH]c2ccccc12)NC(=O)[C@H](Cc1ccccc1)NC(=O)[C@H](Cc1ccccc1)N(C)C(=O)CN)C(=O)N[C@@H](CCCNC(=N)N)C(=O)N[C@@H](CCCNC(=N)N)C(=O)N[C@H](C)C(=O)N[C@@H](CCCNC(=N)N)C(=O)N1CCC[C@H]1C(=O)N[C@@H](CCCCN)C(N)=O	Oprk1	ligand displacement, radioligand			15.4 nM
OB(O)c1cc2ccc(OCc3ccccc3)cc2[nH]1	ampC	enzyme activity, inhibitor		added: CENTA	2370 nM
CCC(=O)c1ccc2c(c1)sc(=O)n2CCCCN1CCCCCC1	Sigmar1	binding, radioligand binding	rat liver membranes	added: [3H](+)-pentazocine 5 nM	10.3 ± 0.9 nM
CC[C@H](C)[C@H](NC(=O)CN)C(=O)N[C@H](C(=O)N[C@@H](CC(N)=O)C(=O)N[C@H](C(=O)N[C@@H](CC(C)C)C(=O)N[C@@H](CCC(N)=O)C(=O)N[C@@H](CCCCN)C(=O)N[C@@H](Cc1ccc(O)cc1)C(=O)N[C@@H](Cc1ccc(O)cc1)C(=O)N[C@H]1CSSC[C@@H]2NC(=O)[C@H](CCCCN)NC(=O)[C@H](C)NC(=O)CNC(=O)[C@H](C)NC(=O)[C@H]([C@@H](C)O)NC(=O)[C@H](CO)NC(=O)[C@@H]3CSSC[C@H](NC(=O)[C@H](CCCNC(=N)N)NC(=O)CNC(=O)CNC(=O)[C@H](CCCNC(=N)N)NC(=O)[C@H](C(C)C)NC(=O)[C@H](CCCNC(=N)N)NC1=O)C(=O)N[C@@H](C)C(=O)N[C@@H](C(C)C)C(=O)N[C@@H](CC(C)C)C(=O)N[C@@H](CO)C(=O)N[C@@H](CSSC[C@@H](C(=O)N[C@@H](CCCNC(=N)N)C(=O)N[C@@H](CCCNC(=N)N)C(=O)N[C@@H](CCCCN)C(=O)N[C@@H](CCCCN)C(N)=O)NC2=O)C(=O)N[C@@H](CC(C)C)C(=O)N1CCC[C@H]1C(=O)N[C@@H](CCCCN)C(=O)N[C@@H](CCC(=O)O)C(=O)N[C@@H](CCC(=O)O)C(=O)N[C@@H](CCC(N)=O)C(=O)N[C@@H]([C@@H](C)CC)C(=O)NCC(=O)N[C@@H](CCCCN)C(=O)N3)[C@@H](C)O)[C@@H](C)CC	MC1R	ligand displacement in cells			48 nM
COc1ccc([C@@H]2N=NC(NCCc3c[nH]c4ccc(C)cc34)=NC2=O)cc1	ache (Electrophorus electricus, UniProt O42275)	enzyme activity, inhibitor			280 nM
CC(C)C[C@H](NC(=O)[C@H](CCCNC(=N)N)NC(=O)[C@H](Cc1ccccc1)NC(=O)[C@H](Cc1ccccc1)NC(=O)[C@H](Cc1ccccc1)N(C)C(=O)COc1ccccc1)C(=O)N[C@@H](CCCNC(=N)N)C(=O)N[C@@H](CCCNC(=N)N)C(=O)N[C@H](C)C(=O)N[C@@H](CCCNC(=N)N)C(=O)N1CCC[C@H]1C(=O)N[C@@H](CCCCN)C(N)=O	Oprk1	ligand displacement, radioligand			7.34 nM
CC[C@H](C)[C@H](NC(=O)CN)C(=O)N[C@H](C(=O)N[C@@H](CC(N)=O)C(=O)N[C@H](C(=O)N[C@@H](CC(C)C)C(=O)N[C@@H](CCC(N)=O)C(=O)N[C@@H](CCC(N)=O)C(=O)N[C@@H](Cc1ccc(O)cc1)C(=O)N[C@@H](Cc1ccc(O)cc1)C(=O)N[C@H]1CSSC[C@@H]2NC(=O)[C@H](CCCCN)NC(=O)[C@H](CCCNC(=N)N)NC(=O)CNC(=O)[C@H](CCCNC(=N)N)NC(=O)[C@H]([C@@H](C)O)NC(=O)[C@H](CO)NC(=O)[C@@H]3CSSC[C@H](NC(=O)[C@H](CCCNC(=N)N)NC(=O)CNC(=O)CNC(=O)[C@H](CCCNC(=N)N)NC(=O)[C@H](C(C)C)NC(=O)[C@H](CCC(N)=O)NC1=O)C(=O)N[C@@H](C)C(=O)N[C@@H](C(C)C)C(=O)N[C@@H](CC(C)C)C(=O)N[C@@H](CO)C(=O)N[C@@H](CSSC[C@@H](C(=O)N[C@@H](CCCNC(=N)N)C(=O)N[C@@H](CCCNC(=N)N)C(=O)N[C@@H](CCCCN)C(=O)N[C@@H](CCCCN)C(N)=O)NC2=O)C(=O)N[C@@H](CC(C)C)C(=O)N1CCC[C@H]1C(=O)N[C@@H](CCCCN)C(=O)N[C@@H](CCC(=O)O)C(=O)N[C@@H](CCC(=O)O)C(=O)N[C@@H](CCC(N)=O)C(=O)N[C@@H]([C@@H](C)CC)C(=O)NCC(=O)N[C@@H](CCCCN)C(=O)N3)[C@@H](C)O)[C@@H](C)CC	MC1R	ligand displacement in cells			216 nM
CCCCc1cc(Cc2ccccc2)cc2c1NCCC2NC(=O)C(N)Cc1c(C)cc(O)cc1C (centres unmarked)	OPRK1	ligand displacement, radioligand		cell membranes	34 nM
Cc1cc2c(cc1Cl)Cc1c(C(=O)NC3CCCCC3)nn(-c3ccc(Cl)cc3Cl)c1-2	Cnr1 (Mus musculus, UniProt P47746)	binding, radioligand displacement	mouse brain homogenate without cerebellum	added: [3H]CP-55,940	875 ± 25 nM
Cc1cc(O)cc(C)c1CC(N)C(=O)NC1CCNc2ccc(CN3CCc4ccccc4C3)cc21 (centres unmarked)	OPRK1	ligand displacement, radioligand		cell membranes	2.2 nM
CC(=O)N[C@@H](CCCNC(=N)N)C(=O)N[C@@H](Cc1ccc(O)cc1)C(=O)N[C@@H](CCCNC(=N)NC(=O)NCCCCN)C(=O)N[C@@H](CC(C)C)C(=O)N[C@@H](CCCNC(=N)N)C(=O)N[C@H](Cc1ccc(O)cc1)C(N)=O	NPY1R	ligand displacement, radioligand			> 5000 nM
CNC(=O)C1CCN(c2ccccc2NC(=O)c2ccc(-c3cc(O)ccc3C)c(C)n2)CC1	EPHB1 (Homo sapiens, UniProt P54762)	cell-free assay, TR-FRET			0.5 nM

Some of these lines once more:
Compound	target	assay	test system	setting	Ki
COC(=O)C1C(OC(c2ccc(Cl)cc2)c2ccc(Cl)cc2)CC2CCC1N2C (single isomer, unassigned)	Hrh1 (Rattus norvegicus, UniProt P31390)	ligand displacement, radioligand			27100 nM
